Assay results pooled from the literature.
Each line is one published result; not all experiments were run side by side. ± marks the error that the study gave.
Chain of UniProt P06276 (whole entry, looked up): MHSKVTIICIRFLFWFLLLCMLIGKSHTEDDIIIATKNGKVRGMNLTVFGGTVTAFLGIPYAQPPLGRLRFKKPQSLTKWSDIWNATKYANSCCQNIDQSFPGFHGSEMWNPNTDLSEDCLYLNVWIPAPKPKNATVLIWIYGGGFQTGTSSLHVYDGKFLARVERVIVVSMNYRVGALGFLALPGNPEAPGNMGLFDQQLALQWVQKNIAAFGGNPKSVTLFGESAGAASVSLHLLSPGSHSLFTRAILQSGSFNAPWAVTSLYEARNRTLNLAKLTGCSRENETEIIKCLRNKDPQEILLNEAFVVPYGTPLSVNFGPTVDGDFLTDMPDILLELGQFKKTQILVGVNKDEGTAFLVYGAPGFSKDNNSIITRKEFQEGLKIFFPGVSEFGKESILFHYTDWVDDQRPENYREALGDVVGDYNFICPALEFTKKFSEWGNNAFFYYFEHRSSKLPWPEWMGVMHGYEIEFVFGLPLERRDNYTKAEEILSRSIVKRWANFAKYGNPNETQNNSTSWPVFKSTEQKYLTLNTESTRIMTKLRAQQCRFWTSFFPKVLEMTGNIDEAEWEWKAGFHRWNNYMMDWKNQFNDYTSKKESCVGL
Chain of UniProt P00761 (whole entry, looked up): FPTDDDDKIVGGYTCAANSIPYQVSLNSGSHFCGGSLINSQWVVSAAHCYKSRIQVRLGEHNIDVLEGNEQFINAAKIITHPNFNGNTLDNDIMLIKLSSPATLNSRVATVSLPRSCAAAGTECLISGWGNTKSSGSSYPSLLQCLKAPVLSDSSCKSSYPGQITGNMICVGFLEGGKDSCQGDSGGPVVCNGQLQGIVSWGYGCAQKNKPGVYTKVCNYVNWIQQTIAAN
Chain of UniProt P0A6Y8 (whole entry, looked up): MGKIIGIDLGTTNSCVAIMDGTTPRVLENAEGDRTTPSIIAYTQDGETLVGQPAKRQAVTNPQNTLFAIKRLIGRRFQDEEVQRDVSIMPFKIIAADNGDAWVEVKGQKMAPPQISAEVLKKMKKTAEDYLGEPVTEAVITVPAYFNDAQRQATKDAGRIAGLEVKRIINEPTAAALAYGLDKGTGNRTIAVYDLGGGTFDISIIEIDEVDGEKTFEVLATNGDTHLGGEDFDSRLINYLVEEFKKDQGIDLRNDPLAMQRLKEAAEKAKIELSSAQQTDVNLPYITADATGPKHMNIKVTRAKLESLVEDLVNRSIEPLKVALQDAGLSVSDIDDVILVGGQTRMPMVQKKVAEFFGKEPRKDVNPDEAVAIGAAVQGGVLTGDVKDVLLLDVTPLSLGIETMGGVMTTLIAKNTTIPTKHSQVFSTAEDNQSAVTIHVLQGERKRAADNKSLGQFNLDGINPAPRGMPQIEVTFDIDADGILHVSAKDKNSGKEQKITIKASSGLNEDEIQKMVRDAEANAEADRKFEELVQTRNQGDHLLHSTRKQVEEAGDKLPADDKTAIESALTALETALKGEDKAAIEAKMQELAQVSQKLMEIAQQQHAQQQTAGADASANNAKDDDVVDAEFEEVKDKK
Chain of UniProt P41143 (whole entry, looked up): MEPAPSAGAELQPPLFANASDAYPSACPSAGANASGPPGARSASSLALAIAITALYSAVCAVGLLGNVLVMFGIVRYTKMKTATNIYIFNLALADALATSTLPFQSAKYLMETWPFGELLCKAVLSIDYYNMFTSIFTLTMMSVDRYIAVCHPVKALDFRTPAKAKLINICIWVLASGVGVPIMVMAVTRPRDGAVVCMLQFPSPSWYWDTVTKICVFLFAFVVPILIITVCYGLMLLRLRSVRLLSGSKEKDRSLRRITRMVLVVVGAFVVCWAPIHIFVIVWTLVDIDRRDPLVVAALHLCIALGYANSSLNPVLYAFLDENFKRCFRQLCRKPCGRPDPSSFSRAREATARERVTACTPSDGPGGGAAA
Chain of UniProt P09104 (whole entry, looked up): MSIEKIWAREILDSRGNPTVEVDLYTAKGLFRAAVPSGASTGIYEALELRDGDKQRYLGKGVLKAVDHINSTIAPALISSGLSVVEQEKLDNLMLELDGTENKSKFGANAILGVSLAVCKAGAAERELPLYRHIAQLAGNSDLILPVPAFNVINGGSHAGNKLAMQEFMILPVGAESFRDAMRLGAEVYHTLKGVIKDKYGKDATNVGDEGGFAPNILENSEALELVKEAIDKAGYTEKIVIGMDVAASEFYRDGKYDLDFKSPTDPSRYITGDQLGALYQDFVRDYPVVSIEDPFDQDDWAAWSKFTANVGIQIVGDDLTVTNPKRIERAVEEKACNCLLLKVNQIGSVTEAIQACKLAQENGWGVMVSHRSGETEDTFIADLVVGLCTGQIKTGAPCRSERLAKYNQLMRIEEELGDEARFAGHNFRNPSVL
Chain of UniProt P22303 (whole entry, looked up): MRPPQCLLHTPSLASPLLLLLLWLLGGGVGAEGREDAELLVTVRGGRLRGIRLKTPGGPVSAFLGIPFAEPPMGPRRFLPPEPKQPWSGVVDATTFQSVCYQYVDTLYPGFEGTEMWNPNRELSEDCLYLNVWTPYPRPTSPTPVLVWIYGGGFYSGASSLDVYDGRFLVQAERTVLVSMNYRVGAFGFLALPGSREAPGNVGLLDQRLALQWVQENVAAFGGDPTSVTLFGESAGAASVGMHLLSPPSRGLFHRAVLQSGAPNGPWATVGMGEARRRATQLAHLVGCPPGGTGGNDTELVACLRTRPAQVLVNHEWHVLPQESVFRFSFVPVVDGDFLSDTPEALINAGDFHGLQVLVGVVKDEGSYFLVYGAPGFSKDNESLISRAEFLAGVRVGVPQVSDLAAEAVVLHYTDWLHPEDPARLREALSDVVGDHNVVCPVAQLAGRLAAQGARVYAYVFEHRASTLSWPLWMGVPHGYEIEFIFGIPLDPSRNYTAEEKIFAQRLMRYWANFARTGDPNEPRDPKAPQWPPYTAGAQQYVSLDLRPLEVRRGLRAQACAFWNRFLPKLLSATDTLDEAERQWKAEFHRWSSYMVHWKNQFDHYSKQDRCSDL
Chain of UniProt O15297 (whole entry, looked up): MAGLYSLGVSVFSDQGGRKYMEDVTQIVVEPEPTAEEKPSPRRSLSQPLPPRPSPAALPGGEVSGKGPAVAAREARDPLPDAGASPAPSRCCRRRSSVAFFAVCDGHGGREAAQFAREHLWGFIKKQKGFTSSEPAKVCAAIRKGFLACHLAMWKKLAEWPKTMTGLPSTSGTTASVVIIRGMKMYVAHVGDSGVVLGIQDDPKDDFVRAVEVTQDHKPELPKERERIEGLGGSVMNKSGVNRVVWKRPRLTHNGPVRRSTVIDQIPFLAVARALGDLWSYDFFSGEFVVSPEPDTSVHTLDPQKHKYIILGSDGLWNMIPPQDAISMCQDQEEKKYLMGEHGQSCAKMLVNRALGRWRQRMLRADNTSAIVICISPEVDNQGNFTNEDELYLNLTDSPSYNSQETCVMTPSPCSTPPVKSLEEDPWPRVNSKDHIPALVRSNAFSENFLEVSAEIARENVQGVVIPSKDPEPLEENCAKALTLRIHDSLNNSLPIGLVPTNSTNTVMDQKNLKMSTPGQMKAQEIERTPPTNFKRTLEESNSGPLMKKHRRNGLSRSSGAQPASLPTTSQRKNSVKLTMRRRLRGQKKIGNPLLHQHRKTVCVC
Chain of UniProt P35462 (whole entry, looked up): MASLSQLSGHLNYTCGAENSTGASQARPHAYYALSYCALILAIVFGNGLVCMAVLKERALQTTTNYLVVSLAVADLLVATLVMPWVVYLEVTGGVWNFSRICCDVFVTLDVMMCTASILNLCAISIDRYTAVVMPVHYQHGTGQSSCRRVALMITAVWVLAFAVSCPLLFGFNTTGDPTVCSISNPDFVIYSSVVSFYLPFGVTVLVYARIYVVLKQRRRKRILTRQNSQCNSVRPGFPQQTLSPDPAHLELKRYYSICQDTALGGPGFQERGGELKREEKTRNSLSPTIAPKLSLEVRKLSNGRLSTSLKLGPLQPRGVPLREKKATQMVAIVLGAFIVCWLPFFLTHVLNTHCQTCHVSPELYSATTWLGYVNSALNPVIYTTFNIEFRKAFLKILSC
Chain of UniProt P50391 (whole entry, looked up): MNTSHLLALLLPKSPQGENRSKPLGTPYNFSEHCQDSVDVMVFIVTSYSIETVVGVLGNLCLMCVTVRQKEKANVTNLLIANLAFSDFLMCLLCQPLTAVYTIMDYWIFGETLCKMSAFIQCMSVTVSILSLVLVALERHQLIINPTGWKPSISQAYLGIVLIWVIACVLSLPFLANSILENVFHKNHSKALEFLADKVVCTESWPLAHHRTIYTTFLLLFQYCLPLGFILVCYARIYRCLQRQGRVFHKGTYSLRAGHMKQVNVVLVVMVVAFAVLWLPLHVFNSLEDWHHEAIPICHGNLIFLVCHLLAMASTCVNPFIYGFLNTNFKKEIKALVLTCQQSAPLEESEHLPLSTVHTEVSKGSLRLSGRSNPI
Chain of UniProt P98170 (whole entry, looked up): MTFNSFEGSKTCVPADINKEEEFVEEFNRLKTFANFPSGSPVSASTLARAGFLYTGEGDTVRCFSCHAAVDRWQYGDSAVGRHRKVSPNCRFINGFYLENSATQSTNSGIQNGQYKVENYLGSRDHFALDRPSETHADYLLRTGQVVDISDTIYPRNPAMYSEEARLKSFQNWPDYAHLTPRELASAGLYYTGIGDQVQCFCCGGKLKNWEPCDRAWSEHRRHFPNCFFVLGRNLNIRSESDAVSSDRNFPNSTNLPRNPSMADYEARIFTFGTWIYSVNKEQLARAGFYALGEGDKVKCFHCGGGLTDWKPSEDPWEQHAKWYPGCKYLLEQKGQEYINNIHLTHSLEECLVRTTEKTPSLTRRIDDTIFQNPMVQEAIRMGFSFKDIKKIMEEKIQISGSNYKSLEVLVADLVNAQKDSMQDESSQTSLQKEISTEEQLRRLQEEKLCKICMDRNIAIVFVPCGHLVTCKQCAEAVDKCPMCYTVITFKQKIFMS

| Compound | target | assay | setting | Ki [nM] |
| --- | --- | --- | --- | --- |
| Cc1cc(O)cc(C)c1CC(N)C(=O)NC1CCNc2c(C(=O)NCc3ccccc3)cc(Cc3ccccc3)cc21 (stereo not drawn) | Delta-type opioid receptor (Oprd1, Rattus norvegicus, UniProt P33533) | ligand displacement, radioligand | cell membranes | 3 |
| CC[C@H](C)[C@@H]1NC(=O)[C@H](COP(=O)(O)O)NC(=O)[C@H](Cc2ccccc2)NC(=O)CSC[C@@H](C(N)=O)NC(=O)[C@H](C)NC(=O)[C@H](C(C)C)NC(=O)[C@H](Cc2ccc(OP(=O)(O)O)cc2)NC1=O | Protein phosphatase 1D (PPM1D, Homo sapiens, UniProt O15297) | phosphatase activity, inhibitor, malachite green | together with: ATM pS1981 peptide | 1100 ± 300 |
| COc1cc2c(cc1OC)C(=O)/C(=C\c1ccc(N3CCCCC3)cc1)C2 | Acetylcholinesterase (ACHE, Homo sapiens, UniProt P22303) | enzyme activity, inhibitor |  | 2100 |
| CNC(C)C(=O)NC1COC2CCC(C(=O)NCc3ccccc3)N2C1=O (mixture of isomers) | E3 ubiquitin-protein ligase XIAP, BIR2 (XIAP, Homo sapiens, UniProt P98170) | ligand displacement, FP |  | > 56000 |
| CCCC[C@@H]1NC(=O)[C@H](Cc2ccccc2)NC(=O)CNC(=O)[C@H](NC(=O)[C@@H](N)Cc2ccc(O)cc2)C(C)(C)SSC(C)(C)[C@@H](C(=O)N[C@@H](Cc2c[nH]c3ccccc23)C(=O)NCc2cc(C(F)(F)F)cc(C(F)(F)F)c2)NC(=O)[C@@H]2CCCN2C1=O | Delta-type opioid receptor (OPRD1, Homo sapiens, UniProt P41143) | ligand displacement, radioligand | cell membranes | 150 |
| CC[C@H](C)[C@@H]1NC(=O)[C@H](CCCNC(=N)N)NC(=O)[C@@H]2CCCN2C(=O)[C@@H](NC(=O)CNC(=O)[C@H](CO)NC(=O)CNC(=O)[C@H](CO)NC(=O)CNC(=O)[C@@H](N)CCCCNC(=O)CC[C@H](NC(=O)CCCCCCCCCCCCCCCCC(=O)O)C(=O)O)CSSC[C@@H]2NC(=O)CNC(=O)[C@H](C)NC(=O)[C@H](CC(C)C)NC(=O)[C@@H]3CSSC[C@@H](C(=O)NCC(=O)O)NC(=O)[C@H](Cc4ccccc4)NC(=O)CNC(=O)[C@H](CC(N)=O)NC(=O)[C@@H]4CCCN4C(=O)CNC(=O)[C@H](CSSC[C@H](NC(=O)[C@H](CCCNC(=N)N)NC(=O)[C@H](CCSC)NC(=O)[C@H](CC(C)C)NC1=O)C(=O)N[C@@H](CCCCN)C(=O)N[C@@H](CCC(N)=O)C(=O)N[C@@H](CC(=O)O)C(=O)N[C@@H](CO)C(=O)N[C@@H](CC(=O)O)C(=O)N3)NC(=O)[C@H](C(C)C)NC2=O | Trypsin (Sus scrofa, UniProt P00761) | enzyme activity, inhibitor, fluorescence | with preincubation | 0.125 |
| O=C1C(P(=O)(O)O)CCCN1O (stereo not drawn) | Gamma-enolase (ENO2, Homo sapiens, UniProt P09104) | enzyme activity, inhibitor |  | 64 |
| CC(=O)N[C@@H](CCCNC(=N)N)C(=O)N[C@@H](Cc1ccc(O)cc1)C(=O)N[C@@H](CCCN/C(N)=N/C(=O)NCCCCN)C(=O)N[C@@H](CC(C)C)C(=O)N[C@@H](CCCNC(=N)N)C(=O)N[C@@H](Cc1ccc(O)cc1)C(N)=O | Neuropeptide Y receptor type 4 (NPY4R, Homo sapiens, UniProt P50391) | ligand displacement, radioligand |  | 2.87 |
| CCCCCCCCP(=O)(Oc1ccccc1)O[C@@H]1O[C@H](CO)[C@@H](O)[C@H](O)[C@H]1F (stereo partly drawn) | Lysosomal acid glucosylceramidase (GBA1, Homo sapiens, UniProt P04062) | enzyme activity, irreversible inhibitor | pH 5.5, 37 °C, together with: 2,4-dinitrophenyl beta-D-glucopyranoside | 117000 |
| CC[C@H](C)[C@H](NC(=O)[C@H](CCCNC(=N)N)NC(=O)[C@H](CCCNC(=N)N)NC(=O)[C@@H]1CCCN1C(=O)[C@@H]1CCCN1C(=O)[C@H](CCCNC(=N)N)NC(=O)[C@@H]1CCCN1C(=O)[C@H](CCCNC(=N)N)NC(=O)[C@@H]1CCCN1C(=O)[C@H](CC(C)C)NC(=O)[C@H](Cc1ccc(O)cc1)NC(=O)[C@@H]1CCCN1C(=O)[C@@H]1CCCN1C(=O)[C@H](CCCCN)NC(=O)[C@H](CC(=O)O)NC(=O)[C@@H](N)C(C)C)C(=O)N[C@@H](Cc1ccc(O)cc1)C(=O)N[C@@H](CC(N)=O)C(=O)N[C@@H](CCCNC(=N)N)C(=O)N1CCN(c2cc3c(cc2F)c(=O)c(C(N)=O)cn3C2CC2)CC1 | dnaK (Escherichia coli, UniProt P0A6Y8) | ligand displacement, FP |  | 273 |
| O=c1ccoc2ccc(OCCCCCN3CCCCCC3)cc12 | Cholinesterase (BCHE, Homo sapiens, UniProt P06276) | enzyme activity, inhibitor, Ellman |  | 88.7 |
| CC1(CCN2CCc3ccccc3C2)Cc2cc(Cl)ccc2C1=O (single isomer, unassigned) | D(3) dopamine receptor (DRD3, Homo sapiens, UniProt P35462) | ligand displacement, radioligand |  | 996 |

Repeated from above:
| Compound | target | assay | setting | Ki [nM] |
| --- | --- | --- | --- | --- |
| O=C1C(P(=O)(O)O)CCCN1O (stereo not drawn) | Gamma-enolase (ENO2, Homo sapiens, UniProt P09104) | enzyme activity, inhibitor |  | 64 |
